Measured values from different studies.
Each numbered part is a random draw from the data of one study; scales do not carry over between parts.

Study 1
Target: RNA binding protein fox-1 homolog 2, RRM domain, GST-SBP tag (RBFOX2, Homo sapiens, UniProt O43251-10, residues 100-194)
Technique: RNA Bind-n-Seq
Form: RNA
Matrix: in vitro
Tested at: 365 nM
Notes: natural RNA segment, single round, ends assumed
Reference: no-protein control
Reading: higher = stronger binding
Quantity: RBNS enrichment (R)
Target sequence (chain): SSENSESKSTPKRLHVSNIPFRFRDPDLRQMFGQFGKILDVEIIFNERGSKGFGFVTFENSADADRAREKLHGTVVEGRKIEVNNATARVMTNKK
Sequence = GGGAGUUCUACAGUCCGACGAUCAUCUUGCCUGGCCGAGUGUUUGUGCUAUGUGAGCAUGAGGCUUUAUUUGACUGUGGAAGAAGACACUAAGAGCCAGCAGAAGGGCCUGAGCUGCCUCAUUAGCCUGGCUUUGGAAUUCUCGGGUGCCAA; value = 0.854
Sequence = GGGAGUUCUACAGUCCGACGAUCAGAUUUCUCCACUUGCCUCAAGGCUGGGAACAAACUUCUGUUGGAAUUUUAAAUAGGAUUAUUUGCAUUUUAUAGCAUAGGCAUAAUUUUUUUAAUUUAAGAUUUUUAAGUGGAAUUCUCGGGUGCCAA; value = 0.663
Sequence = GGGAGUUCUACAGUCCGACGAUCAGGAAUAUUCAUAGCACUUGUCACAAAUAGAAGGCAACCAUGAGAUAAUACAAGCCAGGGAGAGGCUUGUAUUACAUGACAGGUGUAAUUAGUCUGCUGAGCCAGCUUUAUGGAAUUCUCGGGUGCCAA; value = 0.942
Sequence = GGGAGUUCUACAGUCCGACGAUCAGAUCCAGUCUAUAAUUACAGAUUUUGUAAGAAAAAAUAUAUAUACACAUAACUGACUGGAAAGAAUUAAUUUCUUUCCCCCAGCUUAAUGCAUGUUGAGGAUAUUGAGCUGGAAUUCUCGGGUGCCAA; value = 2.62
Sequence = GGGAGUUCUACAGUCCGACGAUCGUUCACUGGCCCUACCCGAGACUGGUGAAACUGGAAGUCUUCACACUGGAGUUGCUGUUCCAGCUGGUCGCCCCUCACGGCACAGAGGGAACCUGAGAGCCAGAGACUUCUGGAAUUCUCGGGUGCCAA; value = 0.464
Sequence = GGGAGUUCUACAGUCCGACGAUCAAUAUUUUAAGACCAGGUAUAAUAGUGAAUGCCUGUCCCAGCUCCUGGGAUGCAGAGGAGGGGGAUCACUGCAAGACCACCCUGGUUGCUCUCCAUAUGAGCUCCAGGCCUGGAAUUCUCGGGUGCCAA; value = 1.13
Sequence = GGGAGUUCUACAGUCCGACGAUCAUCCAUUUCCCCACUUAUUUAUAACCAGCCUUCCUUUCAGUCCUAGUGCCUGGAUCAAUGAGAUGGACACUAAUGCUGCUUCUUUAUAAUAAUAGUACCUAAGAGUAUUGUGGAAUUCUCGGGUGCCAA; value = 0.615
Sequence = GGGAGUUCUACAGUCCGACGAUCAUAUUUAGAAACUCAAAAUCAUGUCCUCUUCCACCGGCAGCAAUAUAGUGGAGAAACCAGAAAGAAACUGAGCCCUAGGCUGGGCAUUCCCACUGCAGUGGACCUACUCGUGGAAUUCUCGGGUGCCAA; value = 0.546
Sequence = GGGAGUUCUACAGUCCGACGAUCUUUUAAGACUAAGUACCAAUUGAGGUAAACAUGAAACCGUUAUAAAGCAAAUUAAAAAAAAAUACAUUAGGAAAAGUUACACAAAUGAAGUGUACGCCUAUUAUAUUCCCUGGAAUUCUCGGGUGCCAA; value = 0.931
Sequence = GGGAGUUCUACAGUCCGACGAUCGGCCUGCAGGAGAGGCUGAGACCAGCCCACCCAGCCAGUGGUCGAGCACUGCCCCGCCGCCAAAGUCUGCAGAAUGUGAGAUGAGGUUCUCAAGGUCACAGGCCCCAGUCUGGAAUUCUCGGGUGCCAA; value = 1.56
Sequence = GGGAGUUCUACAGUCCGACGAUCGCAGGAUAAUUGAUGUUUUAUGUUCUUUUUUGGACUUUAUCUUCUUGCAAAAAUUUCUACAAAAAUUGUUUUCUUCAUCCUUGUGGUGCUUAUUCAUCUGAGCCGUCUCCUGGAAUUCUCGGGUGCCAA; value = 0.527
Sequence = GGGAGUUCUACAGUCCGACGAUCGUAUUUACUUAACAAGAUUUAGCUCUUAGUUCUUCAAGUAAAAUUAAAGUCUCUUGUGUAAGAGCCAACACAUGCCCAGCUGCGGAUGGGAGCUGUUCCUGGACAGCCUUUGGAAUUCUCGGGUGCCAA; value = 0.318

Study 2
Target: PABPC1L2, full length, GST fusion (mouse, UniProt A0ABA7IW68)
Technique: RNAcompete
Form: RNA
Matrix: in vitro
Tested at: 20 nM
Notes: 7-mer, probes averaged, single round
Reference: mean of 7-mers
Reading: higher = stronger binding
Quantity: 7-mer Z-score
Residues (chain): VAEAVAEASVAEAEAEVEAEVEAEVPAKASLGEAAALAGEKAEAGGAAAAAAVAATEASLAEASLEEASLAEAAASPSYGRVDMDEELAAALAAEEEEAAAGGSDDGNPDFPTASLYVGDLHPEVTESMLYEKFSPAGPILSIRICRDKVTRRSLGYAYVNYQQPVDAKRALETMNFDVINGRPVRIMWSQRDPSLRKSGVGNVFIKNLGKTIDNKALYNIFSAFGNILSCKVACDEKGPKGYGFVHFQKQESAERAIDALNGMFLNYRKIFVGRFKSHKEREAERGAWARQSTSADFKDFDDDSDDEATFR
Sequence = CGUUCUA; value = -0.32
Sequence = CAACCAC; value = -0.184
Sequence = AGUAUGA; value = 0.0478
Sequence = CGAACUC; value = -0.233
Sequence = GACGUAU; value = -0.246
Sequence = AGAGUAU; value = -0.211
Sequence = GCGUUCU; value = -0.293
Sequence = UCUGUCC; value = -0.507
Sequence = UAACGAG; value = -0.0645
Sequence = GAUUAUC; value = -0.2
Sequence = GAAAUGU; value = -0.0355
Sequence = GCACUAU; value = 0.0696
Sequence = AAUUGUG; value = 0.177
Sequence = GUUGUAU; value = -0.344
Sequence = GCGUCCA; value = -0.2
Sequence = CUGAUUA; value = -0.255
Sequence = GGGCGAA; value = 0.649
Sequence = AAUGGAG; value = 0.206

Study 3
Target: Sal-like protein 4, full length isoform A (SALL4, Homo sapiens, UniProt Q9UJQ4, residues 1-1053)
Sequence of UniProt Q9UJQ4 (whole entry, looked up): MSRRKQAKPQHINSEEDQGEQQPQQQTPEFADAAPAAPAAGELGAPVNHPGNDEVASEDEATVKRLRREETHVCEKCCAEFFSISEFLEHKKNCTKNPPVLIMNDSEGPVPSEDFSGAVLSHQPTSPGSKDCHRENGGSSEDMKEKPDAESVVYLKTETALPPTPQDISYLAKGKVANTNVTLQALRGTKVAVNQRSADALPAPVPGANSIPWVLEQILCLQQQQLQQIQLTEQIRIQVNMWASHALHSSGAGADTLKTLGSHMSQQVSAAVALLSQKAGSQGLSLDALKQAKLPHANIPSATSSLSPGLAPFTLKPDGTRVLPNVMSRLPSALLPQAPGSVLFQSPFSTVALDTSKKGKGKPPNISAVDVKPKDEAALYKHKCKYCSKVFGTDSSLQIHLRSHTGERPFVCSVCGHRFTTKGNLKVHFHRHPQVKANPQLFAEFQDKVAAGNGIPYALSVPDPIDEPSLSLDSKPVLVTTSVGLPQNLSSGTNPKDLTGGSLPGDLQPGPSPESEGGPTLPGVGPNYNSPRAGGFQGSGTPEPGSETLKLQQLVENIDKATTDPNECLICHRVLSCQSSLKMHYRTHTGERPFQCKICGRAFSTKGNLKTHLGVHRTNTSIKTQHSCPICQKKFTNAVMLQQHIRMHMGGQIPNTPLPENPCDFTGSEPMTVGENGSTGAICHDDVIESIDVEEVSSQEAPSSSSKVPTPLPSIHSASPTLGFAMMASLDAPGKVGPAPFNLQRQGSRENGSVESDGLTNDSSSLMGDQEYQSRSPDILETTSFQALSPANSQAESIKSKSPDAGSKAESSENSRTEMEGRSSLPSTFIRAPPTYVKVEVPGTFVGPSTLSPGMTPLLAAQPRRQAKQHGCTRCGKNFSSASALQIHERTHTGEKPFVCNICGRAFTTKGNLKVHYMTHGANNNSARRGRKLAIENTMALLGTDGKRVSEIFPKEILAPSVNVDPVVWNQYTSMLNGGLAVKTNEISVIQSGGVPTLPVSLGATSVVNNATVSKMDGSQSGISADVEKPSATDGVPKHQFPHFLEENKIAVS
Technique: universal PBM
Form: double-stranded DNA, one strand shown
Matrix: in vitro
Tested at: 600 nM
Notes: 8-mer, flanks averaged, mean of replicates
Reading: higher = stronger binding
Quantity: E-score
Sequence = ATAGACTG; value = 0.1
Sequence = ACCTTAGC; value = -0.041
Sequence = CTTAGACA; value = -0.0534
Sequence = ACGTCGCA; value = -0.209
Sequence = GTTAAAAC; value = 0.144
Sequence = AGATTACC; value = 0.12
Sequence = TCGGGAGA; value = -0.125
Sequence = CATATCGA; value = 0.0708
Sequence = CAGCAGAG; value = -0.201
Sequence = CCACAGAC; value = -0.226
Sequence = GAACATCC; value = -0.0841
Sequence = CATTCACC; value = -0.00575
Sequence = AAATAGAT; value = 0.305
Sequence = CCAACCTC; value = -0.0777
Sequence = GAGACAAC; value = -0.144
Sequence = AAGGGCCG; value = -0.362
Sequence = GCTGCTAA; value = -0.18

Study 4
Target: Max dimerization protein 1, bHLH-zipper, MAX partner unstated (MXD1, Homo sapiens, UniProt Q05195, residues 56-136)
Technique: protein-binding microarray
Form: double-stranded DNA, one strand shown
Matrix: in vitro
Tested at: not given
Notes: k-mer, scored over probes, only values ≥0.25
Reading: higher = stronger binding
Quantity: E-score
Residues (chain): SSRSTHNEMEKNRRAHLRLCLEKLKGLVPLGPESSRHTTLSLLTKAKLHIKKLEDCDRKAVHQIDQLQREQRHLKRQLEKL
Sequence = ACATGTAG; value = 0.309
Sequence = CATGACAC; value = 0.315
Sequence = CGTGGTTC; value = 0.37
Sequence = CATGGGTA; value = 0.34
Sequence = GCACACGA; value = 0.259
Sequence = ATAACGCG; value = 0.254
Sequence = ACAACGTG; value = 0.417
Sequence = CAACGTGA; value = 0.378
Sequence = AGCAGGTG; value = 0.3
Sequence = GGGGGAAC; value = 0.253
Sequence = CACATTGA; value = 0.28
Sequence = AACGTGTG; value = 0.409
Sequence = GAACACGA; value = 0.28
Sequence = CCCATGAG; value = 0.257
Sequence = ACACGATG; value = 0.327

Study 5
Target: Interferon regulatory factor 5, full length, phosphomimetic (IRF5, Homo sapiens, UniProt Q13568-2, residues 1-514, K96S/S451D/S453D/S456D/S462D)
Technique: protein-binding microarray
Form: double-stranded DNA, one strand shown
Matrix: in vitro
Tested at: 250 nM
Notes: 60-bp whole probe
With: salmon DNA 0.4 mg/ml
Reference: random background probes
Reading: higher = stronger binding
Quantity: log fluorescence
Shared flanks, not repeated: GCCTAGCAC … GTCTTGATTCGCTTGACGCTGCTG
Sequence = TGAGATTCCAGTTTCGATTAGTGCTAG; value = 9.83 z-score
Sequence = GACGGTTTCGGTATCGCGACGTGCTAG; value = 9.37 z-score
Sequence = TTAGGTTCCCTTTTGCTTTAGTGCTAG; value = 0.728 z-score
Sequence = TTAGATTTCAGTAGCGATTAGTGCTAG; value = 1.82 z-score
Sequence = GACGATATCGGGGCTGGAGACGTGCTA; value = 0.448 z-score
Sequence = GACGATCTCAGTCTCGAGGCGTGCTAG; value = -0.195 z-score
Sequence = GACGGTTTCGGTTTGGGGACGTGCTAG; value = 9.53 z-score
Sequence = GTGGCTCACACCTGTCATCCCGTGCTA; value = -0.537 z-score
Sequence = TCAGGTTTCCTACTGCTTTAGTGCTAG; value = 0.276 z-score
Sequence = TTAGAGTTCAGTCTCGATTAGTGCTAG; value = 0.864 z-score
Sequence = GACCGTATCGGTTTCGGGACGTGCTAG; value = 8.69 z-score
Sequence = GACGCACTGGGGACTGGGGACGTGCTA; value = -0.583 z-score
Sequence = GACGATTTCGGGACTAGAGACGTGCTA; value = 1.93 z-score
Sequence = GAAGGTTTCGGGACTGGGGACGTGCTA; value = 4.13 z-score
Sequence = GACTGTATCCTTTTCCTGACGTGCTAG; value = 0.6 z-score
Sequence = TCACCTTTCCTTTGCCTACTGTGCTAG; value = 0.648 z-score
Sequence = TCAGATCTCCGAGATGCCACTGTGCTA; value = -0.301 z-score
Sequence = TTAGGTATCGAATTTCGGTTAGTGCTA; value = 7.64 z-score
Sequence = TTAGGACTGGGTATCAGTTAGTGCTAG; value = 0.382 z-score
Sequence = TTAGAACTGAGACTCGATTAGTGCTAG; value = -0.00741 z-score
Sequence = GACGGTTTCGGTCTCGGCACGTGCTAG; value = 9.2 z-score
Sequence = TTAGAACTGAGTATCGTTTAGTGCTAG; value = 3 z-score
Sequence = GAATGTAACTCCTATCCAAGTGTGCTA; value = 0.35 z-score
Sequence = GACGGTTTCGGGTCTCGGGACGTGCTA; value = 6.98 z-score

A few entries again (study 3):
Sequence = ACCTTAGC; value = -0.041
Sequence = CTTAGACA; value = -0.0534
Sequence = ACGTCGCA; value = -0.209
Sequence = GTTAAAAC; value = 0.144
Sequence = AGATTACC; value = 0.12
Sequence = TCGGGAGA; value = -0.125
Sequence = CATATCGA; value = 0.0708
Sequence = CAGCAGAG; value = -0.201
Sequence = CCACAGAC; value = -0.226
Sequence = GAACATCC; value = -0.0841
Sequence = CATTCACC; value = -0.00575
Sequence = AAATAGAT; value = 0.305
Sequence = CCAACCTC; value = -0.0777
Sequence = GAGACAAC; value = -0.144
